Measured values pooled from the literature.
Values joined by “and” are separate records of one study, mostly repeats; a detail may differ.
MAPK8: Mitogen-activated protein kinase 8 (MAPK8, Homo sapiens, UniProt P45983)
MAPK8 C116S: Mitogen-activated protein kinase 8 (MAPK8, Homo sapiens, UniProt P45983, C116S)

Compound	target	assay	test system	setting	scale	measurement	value
C=CC(=O)Nc1cccc(-c2cnc3[nH]cc(C(=O)NC(C)(C)C)c3n2)c1	MAPK8	kinase activity	–	0.1 µM	–	inhibition	-2% and 0%
Cc1cccc(O[C@H]2CCC[C@@H](C(C)CNCc3ccncc3)C2)c1 (relative stereo)	MAPK8	kinase activity, kinome panel screening	–	1 µM	–	inhibition	0%
Cc1cc(NC(=O)c2cccc(NC(=O)/C(C#N)=C/C(C)(C)C)c2)ccc1Nc1nccc(-c2cccnc2)n1	MAPK8 C116S	noncovalent binding, SPR	–	100, 300, 1000 nM, two-step kinetic model	–	kon	110000 M⁻¹ s⁻¹
C#CCOC(=O)[C@@]1(C)C=C(C(=O)OC(C)(C)C)C(=O)CC1	MAPK8	enzyme activity, D-SENSOR	–	0.1829 µM, single replicate	–	normalized kinase activity	0.955 and 0.868 and 1.09
C=CC(=O)N1CCCC(n2c(=O)c3ncccc3n(Cc3ccc(Oc4ccccc4)cc3)c2=O)C1 (stereo not drawn)	MAPK8	binding, competition with immobilised ligand	–	1 µM	–	remaining binding	78%
Cc1cccc(-c2ccc3nc(NC(=O)C4CCOCC4)nn3c2)c1	MAPK8	enzyme activity, Dundee kinase panel	–	10 µM	–	remaining activity	102%
COc1cc(-n2cc3cc(F)cc(C(N)=O)c3n2)cc(Cl)c1C1CC(O)(CCO)Cc2ccccc21 (stereo not drawn)	MAPK8	enzyme activity, inhibitor	–	10 µM	–	inhibition	2.14%
COC(=O)[C@@]1(C)C=C(C(=O)Nc2cccc(C(=O)Nc3ccc(Nc4nccc(-c5cccnc5)n4)c(C)c3)c2)C(=O)CC1	MAPK8	enzyme activity, inhibitor	–	0.1829 µM, 6 h, unit not given, together with: GSH 10 mM pre-incubation	baseline: vehicle	remaining activity	0.165
N[C@H]1CC[C@H](Nc2nccc(-c3cccnc3Oc3ccc(NC(=O)NC4CC4)c4ccccc34)n2)CC1	MAPK8	kinobead competition pulldown	HEK293/HCT116 lysate mixture	10 µM, 1 h, 4 °C	lower = stronger competition	log2 LFQ intensity	28.1 and 28 and 28.2
COc1cc(Nc2nc(C)cc(-c3cnn4nc(OC)ccc34)n2)cc(C(F)(F)F)c1	MAPK8	KINOMEscan	–	1 µM, JNK1	baseline: DMSO	remaining binding	88%
C=CC(=O)N1CCc2ccc(-n3c(=O)ccc4cnc5ccc(-c6cnn(C)c6)cc5c43)cc21	MAPK8	KINOMEscan	–	1 µM	baseline: DMSO control	remaining binding	85%
CC(C)(C)OC(=O)C1=C[C@@](C)(C(=O)OCC#Cc2ccncc2)CCC1=O	MAPK8	D-peptide binding, inhibitor, FP peptide displacement	–	6.25 µM	lower is stronger displacement	fraction bound	0.835
CCN1CCN(Cc2ccc(C(=O)Nc3ccc(C)c(NCc4cnc5[nH]ccc5c4OC)c3)cc2C(F)(F)F)CC1	MAPK8	binding, competition with immobilised ligand	–	1 µM	–	remaining binding	100%
CN(C)c1ccc(-n2cc(COC(=O)[C@]3(C)C=C(C(=O)OC(C)(C)C)C(=O)CC3)nn2)cc1	Mitogen-activated protein kinase 8, with MKK7 (MAPK8, Homo sapiens, UniProt P45983)	protein-protein interaction, NanoBiT, measured: MKK7-JNK1 binding	HEK293T	10 µM	baseline: DMSO control	luminescence relative to control	0.409
COC(=O)[C@@]1(C)C=C(C(=O)NCc2cccc(C(=O)Nc3ccc(Nc4nccc(-c5cccnc5)n4)c(C)c3)c2)C(=O)CC1	MAPK8 C116S	noncovalent binding, SPR	–	100, 300, 1000 nM, two-step kinetic model	–	kon	340000 M⁻¹ s⁻¹
COc1c(Cl)cccc1Nc1c(-c2ccncc2C#C[C@@]2(C)CCCN2C(=O)/C=C/CN(C)C)[nH]c2c1C(=O)NCC2	MAPK8	binding, competition with immobilised ligand	–	3 µM	–	remaining binding	0.7%
NC(=O)[C@@H](O)C[C@H]1CCc2sc3ncnc(O[C@H]4CC[C@H](N5CCOCC5)CC4)c3c21	MAPK8	enzyme activity, inhibitor	–	10 µM	–	inhibition	-3%
Cc1cnc2nc1Nc1cccc(c1)COC/C=C/COCc1cc(ccc1OCCN1CCOCC1)N2	MAPK8	–	–	concentration not given, kinase construct JNK1	baseline: control	binding	53%
COc1ccc(NC(=O)Nc2ccc3c(c2)C(=O)N(C(C)CO)CC(C)C(CN(C)Cc2ccc4c(c2)OCO4)O3)cc1 (stereo not drawn)	MAPK8	binding, competition with immobilised ligand	–	10 µM	–	remaining binding	91%
Cc1cccc(C2(C(=O)Nc3c[nH]nc3-c3ccccc3)CC2)c1	MAPK8	cell-free assay, competition with immobilised ligand	–	10 µM	–	remaining binding	23%
COc1ccc(C(=O)/C=C/c2ccccc2-c2c[nH]c3ccc(C#N)cc23)c(O)c1	MAPK8	enzyme activity, inhibitor	–	20 µM	–	inhibition	-7%
COC(=O)[C@]1(Cc2ccccc2)C=C(C(=O)OC(C)(C)C)C(=O)CC1	MAPK8	D-peptide binding, inhibitor, FP peptide displacement	–	15.62 µM	lower is stronger displacement	fraction bound	0.325
C=C1C[C@@]2(C(=O)OC)C=C(C(=O)Nc3cccc(C(=O)Nc4ccc(Nc5nccc(-c6cccnc6)n5)c(C)c4)c3)C(=O)[C@@H]1C2	MAPK8	SPR two-step binding model	–	reversible bond formation	–	ΔΔG bond formation contribution	-2.5 kcal/mol
COc1ccc(O)cc1-c1c[nH]c2ncc(-c3cncc(C(=O)N(C)C)c3)cc12	MAPK8	binding, competition with immobilised ligand	–	0.2 µM	–	inhibition	7.26%
C=C1CC2(C(=O)OC)C=C(C(=O)OC(C)(C)C)C(=O)C1C2 (stereo not drawn)	MAPK8	D-peptide binding, inhibitor, FP peptide displacement	–	15.62 µM	lower is stronger displacement	fraction bound	0.799
CN1CCN(Cc2ccc(NC(=O)c3cccc(C#Cc4cnc(N)c5ncccc45)c3)cc2C(F)(F)F)CC1	MAPK8	cell-free assay, competition with immobilised ligand	–	0.5 µM	–	remaining binding	70%
COC(=O)[C@@]1(C)C=C(C(=O)OC(C)(C)C)C(=O)CC1	MAPK8	D-peptide binding, inhibitor, FP peptide displacement	–	250 µM	lower is stronger displacement	fraction bound	0.333
CNC(=O)C[C@H](Cc1ccc(C#N)cc1)NC(=O)c1cc(-c2ccc(CN[C@H](C)c3ccc(C)cc3)o2)ccc1Cl	MAPK8	enzyme activity, inhibitor	–	1 µM	–	activity vs control	102%
CC(C)=CC1OC(C)(C)C2C=C3C(=O)C(Cl)=CC(O)C3C3C(O)C4OC4C(=O)C132 (stereo not drawn)	MAPK8	cell-free assay, competition with immobilised ligand	–	10 µM	–	remaining binding	68%
CN(C)c1ccc(C#CCOC(=O)[C@]2(C)C=C(C(=O)OC(C)(C)C)C(=O)CC2)cc1	MAPK8	D-peptide binding, inhibitor, FP peptide displacement	–	62.5 µM	lower is stronger displacement	fraction bound	0.217
